Measured values gathered from unrelated publications.
Each numbered part is a random draw from the data of one study; scales do not carry over between parts. Substitutions count along the parent as printed.

Set 1
Target: RNA binding protein fox-1 homolog 2, RRM domain, GST-SBP tag (RBFOX2, Homo sapiens, UniProt O43251-10, residues 100-194)
Method: RNA Bind-n-Seq
Form: RNA
Matrix: in vitro
Tested at: 365 nM
Notes: natural RNA segment, single round, ends assumed
Relative to: no-protein control
Direction: higher = stronger binding
Target sequence (chain): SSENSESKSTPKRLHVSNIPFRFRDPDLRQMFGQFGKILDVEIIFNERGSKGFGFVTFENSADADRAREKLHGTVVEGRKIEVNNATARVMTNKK
`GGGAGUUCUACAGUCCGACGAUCGUGUGGGUGUGGGUGCCAGCUCCAAGUUGGCUGAGCCUUUUUCCAGGUUCUACCCGGGCGCCUCUGUGUGUUCUACAGCACAGAGGACUUCGGGGAGAUUGAUUGGAUCAUGGAAUUCUCGGGUGCCAA` — result for “RBNS enrichment (R)”: 0.232.
`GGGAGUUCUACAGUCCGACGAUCGCAGAGAGUGCCCCAUGCCUUCUUUAAGAAGUCCCUCAUUAAGCCGCAGGAACAAUGGAAAACUAUUUAAGGGAACAUUGCAGAAAUAUUUGAUGACUGUUUCUUGUGGAUGGAAUUCUCGGGUGCCAA` — result for “RBNS enrichment (R)”: 0.624.
`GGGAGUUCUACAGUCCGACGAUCCUUGUCCCCUGCUCUCUCUUCUACCUACCUGCCUACCCCUGCAGAUCCUGUGGGCAGACACCUUACUCUGGAGCCAUUCCACCUGCCUGUCACCUGGGUCUGAGAAGCCUUGGAAUUCUCGGGUGCCAA` — result for “RBNS enrichment (R)”: 0.641.
`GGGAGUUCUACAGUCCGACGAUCCAGGGAGGGAAUGAUAUAAUUUUCAUGACAAUGUCAUGUGAUGAUAGAAUUUCUCCAUUGAUGAAUCUCUAGUAUGUGUGUAUACUUUAUUUACCCAUACGUAUAUUUUAUGGAAUUCUCGGGUGCCAA`: “RBNS enrichment (R)” 0.318.
Under “RBNS enrichment (R)”, `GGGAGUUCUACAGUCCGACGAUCGAAAUAUUUACUACAUAUUUUCCAUCUGUAGUUUCUCAGAAGGGCUAUGGAUUAGUUUGAACUGUCAAAUCCUUGCAUACUUCUGUGACACCCCUGCCCAUUUUCUGUCUUGGAAUUCUCGGGUGCCAA` is recorded as 0.747.
Under “RBNS enrichment (R)”, `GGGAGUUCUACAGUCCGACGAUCAGAUUUGCUGUGUGAUGAAGUGACAGGGAGGGCCGGAGUCAGCAGGUGCCAGACUUUCUGUUCUGUCUGCCAUGGGUUUGUCCAGCUCAGGUAGCUCUAGGAGCACCAUCUGGAAUUCUCGGGUGCCAA` is recorded as 0.403.
For `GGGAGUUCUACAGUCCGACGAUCUCUGUCUGCUUCCACAGUCUGCUUAAAAAACUGUCUGACUUCGUGAAUAUAGAGACCAAGUUUACCACUUCUGAUGAAGAGACCAAUUAAGAUUCAUUCCUCAUUCUGUUUGGAAUUCUCGGGUGCCAA`, “RBNS enrichment (R)” read 0.526.
`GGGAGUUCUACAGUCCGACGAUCCCGCAGCUCAGCUGCACUGCGUUCCGAGGUGAAGUCUUGCCCCUGAAUUUUGCAAAAUGGGAAAGUGGGCGCUUGCCCAAGGGCCAGGCUGCAUGGAUUCUCACAUCAGAUGGAAUUCUCGGGUGCCAA`: “RBNS enrichment (R)” 0.383.
`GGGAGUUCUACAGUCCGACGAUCCCUCUUUCUCUCUCUAUUUAUAAAUGAGAACUGUUGGACGACACCUUUGACAUAUCAGCCAAUACCAAUCAAGCUGACGACUCCAGACACUCCGUGUGACUGUAACAUUUUGGAAUUCUCGGGUGCCAA` — result for “RBNS enrichment (R)”: 0.438.
Under “RBNS enrichment (R)”, `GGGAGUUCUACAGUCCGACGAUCGCGAGGUUAAAAAAAUGUGCCUCGUGGAUCUCCCUGUUUUAGUAACAUGGAGAGAAAAAGUCUACACGAAAAAGUGAACAAUUUAAUGAAGAUGAUUAGCCUUCCUUGAAUGGAAUUCUCGGGUGCCAA` is recorded as 0.301.
`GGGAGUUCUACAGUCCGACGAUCUUUGAGUGAAUGGCAGGAAAGGGCCAUCUCCAUUGAGAUGAUUAAGUGAACCAAACUAGUUCUCAGAAUUCUACAGAGAAGGAGGGAAUCAGACUGAGGAAGCUGUGACAUGGAAUUCUCGGGUGCCAA` — result for “RBNS enrichment (R)”: 0.247.
`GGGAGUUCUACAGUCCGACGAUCGCUCCCACUCUCGUGGGUGCAAAAGCGGCAGCAAAAAGCAGCCAUUUACUUGGGUACUUAAGAGUUAUUGUAUUAAUAAAAAGUUAUUGACUUGUCCUUUGAGAGCCUUCUGGAAUUCUCGGGUGCCAA` — result for “RBNS enrichment (R)”: 0.412.

Set 2
Target: RING finger protein unkempt homolog, zinc fingers 1-6, GST-SBP tag (UNK, Homo sapiens, UniProt Q9C0B0, residues 30-357)
Method: RNA Bind-n-Seq
Form: RNA
Matrix: in vitro
Tested at: not given
Notes: RNA with constant flanks, human and mouse sites, ends assumed
Relative to: input RNA pool
Direction: higher = stronger binding
Target sequence (chain): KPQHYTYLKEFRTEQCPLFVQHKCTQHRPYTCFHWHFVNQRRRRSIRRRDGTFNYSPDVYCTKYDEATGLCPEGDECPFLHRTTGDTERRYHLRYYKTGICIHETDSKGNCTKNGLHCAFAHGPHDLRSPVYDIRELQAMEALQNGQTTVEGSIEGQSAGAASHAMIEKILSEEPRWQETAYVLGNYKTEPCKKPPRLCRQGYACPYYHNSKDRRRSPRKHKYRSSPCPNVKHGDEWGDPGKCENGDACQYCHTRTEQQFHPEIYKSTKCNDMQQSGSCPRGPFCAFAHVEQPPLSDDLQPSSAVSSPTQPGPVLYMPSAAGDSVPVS
`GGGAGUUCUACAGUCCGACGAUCUUGCUAUGUUUUUAUCAGUUCGCAGGAACUUUAUAUUAAUGGAUAUUGAGCCUUUGCUCUGGGUGUGUUUGUAUAUAGAGAGAAACAUAUAUAGUGUACAUACUAUCUAAUGUAUAUUAACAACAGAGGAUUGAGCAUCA` gave a bound/input enrichment of 0.59 ratio.
The bound/input enrichment of `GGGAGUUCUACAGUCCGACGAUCAUUUUGCUUUUUUCCCCUCACAUUGAAUUUUAAUUCCAUUCUUGAAUGUAGAAAUUUCAGAUUCUCUAAAACUACAUGUCACUGUUUUUAUCCUAGAAAAUGUUGCUGUCAGAAGGCAAACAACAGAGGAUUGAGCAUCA` is reported as 0.461 ratio.
The bound/input enrichment of `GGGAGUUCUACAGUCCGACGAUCCUUGCGGUGGCGUAAUCUCUCAGCCUUUCUGUGUCUCCUUUCCUCCGCCUCAGUUUGGGGCGGGUCGGGGGAAUGGCUGAGGAGAUGGAGUCGUCGCUCGAGGCAAGCUUUUCGUCCAGCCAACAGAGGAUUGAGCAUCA` is reported as 0.0804 ratio.
`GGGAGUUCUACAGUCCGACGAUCGAGAGACAUUUCUCCAUCUCAGGAUGCCCGCUGUAUCAUAACCUCUCAGCUGACGAAUGCAAGGCACCAACAGAGAGACAGCUGCGGUAUAAGGAAAAGGUGGCUGAACUCAGGAAGAAACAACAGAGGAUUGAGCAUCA` has a bound/input enrichment of 0.223 ratio.
`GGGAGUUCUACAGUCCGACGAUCUGGACUUUAAAAGCAUUGAUGAUGAAGUAGUGGAGCAGAGAUCUGGUUCCUCAACACCUCAGCGUUCCUGUUCUGCUGCUGGCUUACACAGACCAAGAUCAAGUUUUGAUUCCACAACUGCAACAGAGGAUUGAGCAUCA` has a bound/input enrichment of 0.109 ratio.
`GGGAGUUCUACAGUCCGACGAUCGGAACUGUGGUCCAUGGGAAAGUCUUACAGUAUUACCAGGAGUCUGAGAAACCUGAGGAGUUAGGAUCUGUAACUGUACAAAAAGAAUAUUCAUCCUCCUUUGACCGAGUUAUCAAAGAGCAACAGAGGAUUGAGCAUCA` has a bound/input enrichment of 0.245 ratio.
For `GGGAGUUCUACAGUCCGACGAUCUGUAUUGUGUAAUGCAUUGUUCUCAGUUUCCCUGCCAACAUUGAAAAAUAAAAACAGCAGCUUUUCUCCUUUACCACCACCUCUACCCCUUUCCAUUUUGGAUUCUCGGCUGAGUUCUCACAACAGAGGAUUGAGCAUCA`, the bound/input enrichment was 0.33 ratio.
`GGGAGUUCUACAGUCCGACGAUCCUGAAAGCUGCCAUUGCAGAAUGUGAAGAAGUUAGAAGAAAAAGUGAACUGUUUAACCCUGUUAGUUUAGACUGUAAGCUAAGGCAAAAAGCAAUUGCAGAAGUUGAUGUGGGUACAGAUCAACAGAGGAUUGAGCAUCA` has a bound/input enrichment of 2.25 ratio.
For `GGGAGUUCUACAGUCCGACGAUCAAGUCUUGCUAGAAUUUUUUCUAAUCUUUAGUAGAUUUGAUUAAAUAAUGAUUCACAGAAUUUAGUAACAGAAUCAAACUAAGCCAUGUAUGAGGGUAAUCGAGAUGAGGAUAUUAACUCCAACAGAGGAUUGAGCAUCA`, the bound/input enrichment was 0.789 ratio.
The bound/input enrichment of `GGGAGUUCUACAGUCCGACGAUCCCGGGACAGUGUGGCCGAGCAGAUGGCUAUGUGCUAGAGGGCAAAGAGUUGGAGUUCUAUCUUAGGAAAAUCAAGGCCCGCAAAGGCAAAUAAAUCCUUGUUUUGUCUUCACCCAUGUAACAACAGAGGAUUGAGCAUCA` is reported as 0.268 ratio.
With `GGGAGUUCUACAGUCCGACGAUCUCCUGUGCUGUGGGAAGGGGCAGGACGGCUGGUGGGGGGGGCUGAUGUGGCACCUUGCAAAUAGAAUAUCUAAGUCCACAAUCUUUGUAAGAAAAGUAUGUUUAUGUUUCAAUCUGAAUCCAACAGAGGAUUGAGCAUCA` the bound/input enrichment was 3.74 ratio.

Set 3
Target: CCNB1, cyclin fold, Cln2 fusion (human)
Method: yeast growth competition, sequencing
Matrix: yeast
Notes: weak parent motif
Relative to: not given
Direction: higher = stronger binding
Starting sequence: RB1 docking peptide (human); PKPLKKLRFDIEG
Under “normalised enrichment score”, `PKPLKKLRFDIMG [E12M]` is recorded as 0.644.
Under “normalised enrichment score”, `PKPLKKLIFDIEG [R8I]` is recorded as 0.51.
`PKPLKKARFDIEG [L7A]`: “normalised enrichment score” 0.551.
Under “normalised enrichment score”, `PKPKKKLRFDIEG [L4K]` is recorded as 0.0878.
`PKPLSKLRFDIEG [K5S]` — result for “normalised enrichment score”: 0.843.
`PKPLKKLDFDIEG [R8D]` — result for “normalised enrichment score”: 0.518.
`PKPLKKLRFVIEG [D10V]` — result for “normalised enrichment score”: -0.317.
`WKPLKKLRFDIEG [P1W]` — result for “normalised enrichment score”: 0.744.
`PKPLKKLRFDILG [E12L]`: “normalised enrichment score” 1.25.
`PKPSKKLRFDIEG [L4S]`: “normalised enrichment score” 0.456.
Under “normalised enrichment score”, `PKPLKKLRFKIEG [D10K]` is recorded as 0.705.
`PKPVKKLRFDIEG [L4V]` — result for “normalised enrichment score”: 1.82.
`PKPLKYLRFDIEG [K6Y]`: “normalised enrichment score” -0.431.
Under “normalised enrichment score”, `PKPLKPLRFDIEG [K6P]` is recorded as 0.175.
For `PKPLKKLRFDIEI [G13I]`, “normalised enrichment score” read 0.662.
Under “normalised enrichment score”, `PKPLKRLRFDIEG [K6R]` is recorded as -0.031.
`PKPLKKLRFPIEG [D10P]`: “normalised enrichment score” 0.729.
For `PKPLKKLRFDAEG [I11A]`, “normalised enrichment score” read 1.17.
Under “normalised enrichment score”, `PKPLKKLRFMIEG [D10M]` is recorded as 1.16.

Single results of other studies
With `PhoQ, residues 284 288 289 292 302 303 SLCLSL` the fold induction was 5.62 (PhoP, residues 12 14 15 18 19 AQALL (Escherichia coli, UniProt P23836); Sort-seq, refers to: YFP reporter; E. coli; PhoQ-PhoP variant library, together with: 10 µM Mg2+; relative to: high Mg2+ state, higher = stronger signaling).

Repeated from above (set 3):
`PKPLKYLRFDIEG [K6Y]`: “normalised enrichment score” -0.431.
Under “normalised enrichment score”, `PKPLKPLRFDIEG [K6P]` is recorded as 0.175.
For `PKPLKKLRFDIEI [G13I]`, “normalised enrichment score” read 0.662.
Under “normalised enrichment score”, `PKPLKRLRFDIEG [K6R]` is recorded as -0.031.
`PKPLKKLRFPIEG [D10P]`: “normalised enrichment score” 0.729.
For `PKPLKKLRFDAEG [I11A]`, “normalised enrichment score” read 1.17.
